Measured values gathered from unrelated publications.
Numbers after ± are the reported error.

Substance	cell line	assay	test system	conditions	IC50
CCN(CC)Cc1ccc(/C=N/NC(=O)Nc2cc3c(Nc4ccc(F)c(Cl)c4)ncnc3cc2O[C@H]2CCOC2)cc1	NCI-H1975	cell growth or viability, MTT	–	72 h	62.6 µM
CCN(CC)CCOc1ccc(-c2nc3ccc(F)cc3[nH]2)cc1F	DND41	cell growth or viability, MTS	–	72 h	30.3 µM
COc1cc(O)c2c(c1)O[C@H](c1ccc(O)cc1)CC2=O	BV-2	TNF-alpha release, ELISA	–	24 h, with: LPS 10 µg/mL + nicotine 1 µM	22.3 µM
CCCn1cnc2ccc(-c3ccc4sc(NC(=O)Nc5ccc(F)cc5)nc4c3)cc2c1=O	NCI-H1975	cell growth or viability, MTT	–	72 h	0.49 µM
CCCCCCCCCCCCCC(=O)OC[C@H](COP(=O)([O-])OCC[N+](C)(C)C)OC(=O)CCCCCCCCCCCCC	MDA-MB-435S	cell growth or viability, MTT	–	72 h	231 µM
CC[C@@]1(O)C(=O)OCc2c1cc1n(c2=O)Cc2cc3c(CN(C)C)c(O)ccc3nc2-1	MT330	cell growth or viability	–	–	4.81 µM
COC(=O)c1c(-c2cccc(OC)c2)c2n(c1C(=O)OC)CCn1cccc1-2	PC-3	cell growth or viability, MTT	–	48 h	85.5 µM
CCNC(=O)Nc1ccc(S(=O)(=O)Oc2cnccc2C)cc1	HT-1080	cell growth or viability, SRB	–	48 h	9.4 µM
COc1cc2ncnc(Nc3ccc(F)c(Cl)c3)c2cc1NC(=O)N/N=C/c1ccc(CN2CCCC2)cc1	NCI-H1975	cell growth or viability, MTT	–	72 h	16.6 µM
c1ccc2[nH]c(-c3ccc(OCCN4CCOCC4)cc3)nc2c1	DND41	cell growth or viability, MTS	–	72 h	42.9 µM
O=S(=O)(Nc1cc(Sc2ccccc2)c(O)c2ccccc12)c1c(F)c(F)c(F)c(F)c1F	AML cell lines	item: phospho-STAT3 (Tyr)	–	30 min pretreatment, with: G-CSF	0.8 to 1.9 µM
navitoclax	H146	cell viability, MTS	–	48 h	0.0438 µM
CC(=O)O[C@@]12CO[C@@H]1C[C@H](O)[C@@]1(C)C(=O)[C@H](O)C3=C(C)[C@@H](OC(=O)[C@H](O)[C@@H](NC(=O)OC(C)(C)C)c4ccccc4)C[C@@](O)([C@@H](OC(=O)c4ccccc4)[C@H]21)C3(C)C	PC-3M	cell growth or viability, SRB	–	96 h	0.043 µM
COc1ccc(/C=C/C(=O)CC(=O)/C=C/c2ccc(OC(=O)C3=CC=C[CH]3[Fe][CH]3C=CC=C3)cc2)cc1OC (centres unmarked)	RKO	cell growth or viability, MTT	–	–	149 µM
COc1ccc(C[C@H]2COC(=O)[C@@H]2Cc2ccc(OCc3cn(CC(=O)NO)nn3)c(OC)c2)cc1OC	Kasumi 1	cell growth or viability, CCK-8	–	48 h	> 5 µM
O=C(O)c1ccc(O)cc1	BV-2	NO release, inhibitor, Griess	–	LPS-stimulated	> 20 µM
O=c1[nH]nc(O)c2c(-c3cccc(Cl)c3)c3n(c12)CCn1cccc1-3	PC-3	cell growth or viability, MTT	–	48 h	30 µM
CCOC(=O)OCOc1c(-c2ccc(-c3ccc(OC(F)(F)F)cc3)cc2)c(C)nc2cc(OC)c(Cl)cc12	HeLa and HCT-116 average	cell viability, MTT	–	48 h	19 µM
CC(C)c1cc(CNc2nc(Nc3cc(C4CC4)[nH]n3)cc(N3CCN(C)CC3)n2)on1	primary CLL cells	caspase-3 activation, flow cytometry	–	24 h, OP9 stromal co-culture	2.54 µM
CN(C)c1ccc(/C=N/NC(=O)Nc2cc3c(Nc4ccc(F)c(Cl)c4)ncnc3cc2O[C@H]2CCOC2)s1	NCI-H1975	cell growth or viability, MTT	–	72 h	60.3 µM

Substance	cell line	assay	test system	conditions	IC50
CC1(C)CCC2=CC(=O)CC(=O)C2C1 (centres unmarked)	rat Synovial cell	cell growth or viability, CCK-8	–	48 h	4.48 µM
Cc1ccc(C(CS(=O)(=O)c2ccccc2)=NNc2nc(C)c(N=Nc3cccc(C)c3)s2)cc1	WM 266-4	cell growth or viability, MTT	–	48 h	3.18 µM
Cc1ccc2nc(NCCN)c3ncc(C)n3c2c1	BGC-823	cell growth or viability, MTT	–	72 h	8.6 µM
COc1ccc(C[C@H]2COC(=O)[C@@H]2Cc2ccc(OCC(=O)N3CCC(C(=O)NO)CC3)c(OC)c2)cc1OC	Kasumi 1	cell growth or viability, CCK-8	–	48 h	> 5 µM
Cc1c(C(=O)Nc2ccc(N3C[C@@H](C)O[C@@H](C)C3)nc2)cccc1-c1ccc(OC(F)(F)F)cc1	mouse Medulloblastoma cell	cell growth or viability, thymidine uptake	–	48 h	0.006 µM
CCNC(=O)Nc1ccc(S(=O)(=O)Oc2cccnc2C(C)C)cc1	HT-1080	cell growth or viability, SRB	–	48 h	1 µM
COc1cc(/C=C/C(=O)CC(=O)/C=C/c2ccc(O)c(OC)c2)ccc1O	BGC-823	cell growth or viability, MTT	–	72 h	17.5 µM
CC(=O)/C=C(O)/C=C/c1ccc(O)c(O)c1	HCT-116 and S1	MTT	–	bound	< 10 µM
O=C1C(SCCO)=C(SCCO)C(=O)c2ccccc21	human MSC hMSC-OD1	cell viability, CCK-8	–	48 h, osteogenic differentiation day 1	5.33 ± 0.6 µM
O=C(/C=C/c1ccc(Br)cc1)C(=CC1=CC=C[CH]1[Fe][CH]1C=CC=C1)C(=O)/C=C/c1ccc(Br)cc1 (centres unmarked)	RKO	cell growth or viability, MTT	–	–	17.2 µM
Fc1cc(-c2nc3ccccc3[nH]2)ccc1OCc1cn(CCN2CCOCC2)nn1	DND41	cell growth or viability, MTS	–	72 h	46.9 µM
O=C(Cc1ccc(Br)cc1)Nc1nc2ccccc2n1Cc1ccc(Br)cc1	MDA-MB-231-HRE-Luc cells	HIF reporter gene, inhibitor	–	24 h, hypoxia 1% O2	1.78 ± 0.75 µM
CNC(=O)c1cc(Oc2ccc(NC(=O)Nc3ccc(Cl)c(C(F)(F)F)c3)cc2)ccn1	MHCC97H cells	cell viability, MTT	–	concentration not given, with: pralatrexate 2	0.02 µM
CCNC(=O)Nc1ccc(S(=O)(=O)Oc2cnccc2Br)cc1	HT-1080	cell growth or viability, SRB	–	48 h	4.1 µM
C[C@]1([N+](=O)[O-])C(=O)c2cc(F)ccc2O[C@@H]1CC(=O)NC12CC3CC(CC(C3)C1)C2	PC-3M	cell growth or viability, SRB	–	96 h	5.66 µM
COc1ccc(/C=C/CN2CCN(c3ncc(C(=O)NO)cn3)CC2)cc1	HEL	apoptosis induction, annexin V/PI flow cytometry	–	24 h	0.165 ± 0.00213 µM
COc1cc(O)c2c(=O)c(O)c(-c3ccc(O)c(O)c3)oc2c1	BV-2	TNF-alpha release, ELISA	–	24 h, with: LPS 10 µg/mL	28.8 µM
CCN(CCO)CCCC(C)Nc1ccnc2cc(Cl)ccc12 (centres unmarked)	human PBMC	IFN-alpha release	human	with: SLE patient serum immune complexes	0.8 ± 0.38 µM
C=CC(=O)Nc1cc(Nc2nccc(-c3cn(C)c4ccccc34)n2)c(OC)cc1N(C)CCN(C)C	NCI-H1975	cell growth or viability, MTT	–	72 h	0.21 µM
CCN(CC)c1ccc(/C=N/NC(=O)Nc2cc3c(Nc4ccc(F)c(Cl)c4)ncnc3cc2OC)cc1	NCI-H1975	cell growth or viability, MTT	–	72 h	40.3 µM

Substance	cell line	assay	test system	conditions	IC50
C=CCNC1=C2C[C@@H](C)C[C@H](OC)[C@H](O)[C@@H](C)/C=C(\C)[C@H](OC(N)=O)[C@@H](OC)/C=C\C=C(/C)C(=O)NC(=CC1=O)C2=O	Kasumi 1	cell growth or viability	–	–	0.62 µM
O=C(O)Cc1ccccc1Nc1c(Cl)cccc1Cl.O=C(O)Cc1ccccc1Nc1c(Cl)cccc1Cl.c1cnc2c(c1)ccc1cccnc12.c1cnc2c(c1)ccc1cccnc12	CAL-27	cell viability, MTT	–	48 h	2.95 ± 0.37 µM
O=C(N/N=C/c1ccc(N2CCCC2)o1)Nc1cc2c(Nc3ccc(F)c(Cl)c3)ncnc2cc1O[C@H]1CCOC1	NCI-H1975	cell growth or viability, MTT	–	72 h	32.3 µM
O=C1C(Cl)=C(NCCN2CCOCC2)C(=O)c2ccccc21	HEC-1-A	cell viability, MTT	–	without thiol pretreatment	10.2 µM
O=C(/C=C/c1ccc(Cl)cc1)C(=CC1=CC=C[CH]1[Fe][CH]1C=CC=C1)C(=O)/C=C/c1ccc(Cl)cc1 (centres unmarked)	RKO	cell growth or viability, MTT	–	–	10.5 µM
CC(=O)O[C@H]1C(=O)[C@@]2(C)[C@H]([C@H](OC(=O)c3ccccc3)[C@]3(O)C[C@H](OC(=O)[C@H](O)[C@@H](NC(=O)c4ccccc4)c4ccccc4)C(C)=C1C3(C)C)[C@]1(OC(C)=O)CO[C@@H]1C[C@@H]2O	HCT-15	cell growth or viability, XTT	–	72 h	0.326 µg/mL
C[C@]12C=CC(=O)C=C1CC[C@@H]1[C@@H]2[C@@H](O)C[C@@]2(C)[C@H]1CC[C@]2(O)C(=O)CO	C2C12 myotubes	NF-κB reporter gene, inhibitor	–	24 h pretreatment, with: TNF-α 10 ng/mL, 24 h	1.78 µM
Cc1ccc(/C=C/C(=O)C(=CC2=CC=C[CH]2[Fe][CH]2C=CC=C2)C(=O)/C=C/c2ccc(C)c(C)c2)cc1C (centres unmarked)	RKO	cell growth or viability, MTT	–	–	59.1 µM
CC[n+]1c(/C=C/C=C2/N(C)c3ccccc3C2(C)C)sc2ccccc21	human MSC hMSC-OD1	cell viability, CCK-8	–	48 h, osteogenic differentiation day 1	8.06 ± 0.88 µM
O=C(COc1ccc(-c2nc3ccccc3[nH]2)cc1)N1CCOCC1	DND41	cell growth or viability, MTS	–	72 h	≥ 50.2 µM
C[C@]1([N+](=O)[O-])C(=O)c2c(F)cccc2O[C@@H]1CC(=O)NC12CC3CC(CC(C3)C1)C2	PC-3M	cell growth or viability, SRB	–	96 h	9.75 µM
β-secretase inhibitor IV	H4 overexpressing human APP Swedish	Abeta40 formation	–	24 h	0.125 µM
CC[C@]1(O)C[C@H]2CN(CCc3c([nH]c4ccccc34)[C@@](C(=O)OC)(c3cc4c(cc3OC)N(C=O)[C@H]3[C@@](O)(C(=O)OC)[C@H](OC(C)=O)[C@]5(CC)C=CCN6CC[C@]43[C@@H]65)C2)C1	HCT-15	cell growth or viability, XTT	–	72 h	0.921 µg/mL
COc1ccc(C[C@H]2COC(=O)[C@@H]2Cc2ccc(OCC(=O)NCCCCC(=O)Nc3ccccc3N)c(OC)c2)cc1OC	Kasumi 1	cell growth or viability, CCK-8	–	48 h	> 5 µM
COc1cc(OC)c(Cl)c(NC(=O)N(C)c2cc(Nc3ccc(N4CCN(CC(=O)N[C@H](C(=O)N5C[C@H](O)C[C@H]5C(=O)N[C@@H](C)c5ccc(-c6scnc6C)cc5)C(C)(C)C)CC4)cc3)ncn2)c1Cl	RBE (no FGFR activation)	cell proliferation, CellTiter-Glo	–	3 d	> 10 µM
O=C(COc1ccc(-c2nc3ccc(F)cc3[nH]2)cc1)N1CCOCC1	DND41	cell growth or viability, MTS	–	72 h	30.3 µM
O=C(N/N=C/c1ccc(N2CCCC2)nc1)Nc1cc2c(Nc3ccc(F)c(Cl)c3)ncnc2cc1O[C@H]1CCOC1	NCI-H1975	cell growth or viability, MTT	–	72 h	51.6 µM
CCN(CC)CCOc1ccc(-c2nc3ccccc3[nH]2)cc1	DND41	cell growth or viability, MTS	–	72 h	47 µM
CN(C)C/C=C/C(=O)Nc1cc2c(Nc3ccc(F)c(Cl)c3)ncnc2cc1O[C@H]1CCOC1	MCF7, HCT-116, PC-3, A549	cell growth, MTT	–	range over cell lines	5.1 to 10 µM

Excerpt of the above:
Substance	cell line	assay	test system	conditions	IC50
O=C(/C=C/c1ccc(Cl)cc1)C(=CC1=CC=C[CH]1[Fe][CH]1C=CC=C1)C(=O)/C=C/c1ccc(Cl)cc1 (centres unmarked)	RKO	cell growth or viability, MTT	–	–	10.5 µM
COc1cc2ncnc(Nc3ccc(F)c(Cl)c3)c2cc1NC(=O)N/N=C/c1ccc(CN2CCCC2)cc1	NCI-H1975	cell growth or viability, MTT	–	72 h	16.6 µM
CCN(CC)Cc1ccc(/C=N/NC(=O)Nc2cc3c(Nc4ccc(F)c(Cl)c4)ncnc3cc2O[C@H]2CCOC2)cc1	NCI-H1975	cell growth or viability, MTT	–	72 h	62.6 µM
CCN(CC)CCOc1ccc(-c2nc3ccccc3[nH]2)cc1	DND41	cell growth or viability, MTS	–	72 h	47 µM
O=C1C(Cl)=C(NCCN2CCOCC2)C(=O)c2ccccc21	HEC-1-A	cell viability, MTT	–	without thiol pretreatment	10.2 µM
